Values quoted from earlier work, collected from citations in different studies.
Each numbered part shows a few of the values that one paper quotes.

Series 1
Organism: Toxoplasma gondii
Effect on: parasite growth
Concentration: concentration not given
Notes: drug repurposing screen
Measurement: activity class
CC[C@H](C)C(=O)O[C@H]1CCC=C2C=C[C@H](C)[C@H](CC[C@@H]3C[C@@H](O)CC(=O)O3)[C@H]21: inactive
Cc1c(C(=O)NN2CCCCC2)nn(-c2ccc(Cl)cc2Cl)c1-c1ccc(I)cc1: inactive
COc1ccc2c(c1)c(CC(=O)O)c(C)n2C(=O)c1ccc(Cl)cc1: inactive
OCCN(CCO)c1nc(N2CCCCC2)c2nc(N(CCO)CCO)nc(N3CCCCC3)c2n1: inactive
CC(C)C[C@H](NC(=O)[C@@H](O)[C@H](N)Cc1ccccc1)C(=O)O: inactive
Cc1c(OCC(F)(F)F)ccnc1C[S+]([O-])c1nc2ccccc2[nH]1 (stereo not shown): inactive

Mixed results
TP53-binding protein 1 tandem tudor domain: TP53-binding protein 1, tandem tudor domain (Homo sapiens, UniProt Q12888)
Sequence of UniProt Q12888 (whole entry, looked up): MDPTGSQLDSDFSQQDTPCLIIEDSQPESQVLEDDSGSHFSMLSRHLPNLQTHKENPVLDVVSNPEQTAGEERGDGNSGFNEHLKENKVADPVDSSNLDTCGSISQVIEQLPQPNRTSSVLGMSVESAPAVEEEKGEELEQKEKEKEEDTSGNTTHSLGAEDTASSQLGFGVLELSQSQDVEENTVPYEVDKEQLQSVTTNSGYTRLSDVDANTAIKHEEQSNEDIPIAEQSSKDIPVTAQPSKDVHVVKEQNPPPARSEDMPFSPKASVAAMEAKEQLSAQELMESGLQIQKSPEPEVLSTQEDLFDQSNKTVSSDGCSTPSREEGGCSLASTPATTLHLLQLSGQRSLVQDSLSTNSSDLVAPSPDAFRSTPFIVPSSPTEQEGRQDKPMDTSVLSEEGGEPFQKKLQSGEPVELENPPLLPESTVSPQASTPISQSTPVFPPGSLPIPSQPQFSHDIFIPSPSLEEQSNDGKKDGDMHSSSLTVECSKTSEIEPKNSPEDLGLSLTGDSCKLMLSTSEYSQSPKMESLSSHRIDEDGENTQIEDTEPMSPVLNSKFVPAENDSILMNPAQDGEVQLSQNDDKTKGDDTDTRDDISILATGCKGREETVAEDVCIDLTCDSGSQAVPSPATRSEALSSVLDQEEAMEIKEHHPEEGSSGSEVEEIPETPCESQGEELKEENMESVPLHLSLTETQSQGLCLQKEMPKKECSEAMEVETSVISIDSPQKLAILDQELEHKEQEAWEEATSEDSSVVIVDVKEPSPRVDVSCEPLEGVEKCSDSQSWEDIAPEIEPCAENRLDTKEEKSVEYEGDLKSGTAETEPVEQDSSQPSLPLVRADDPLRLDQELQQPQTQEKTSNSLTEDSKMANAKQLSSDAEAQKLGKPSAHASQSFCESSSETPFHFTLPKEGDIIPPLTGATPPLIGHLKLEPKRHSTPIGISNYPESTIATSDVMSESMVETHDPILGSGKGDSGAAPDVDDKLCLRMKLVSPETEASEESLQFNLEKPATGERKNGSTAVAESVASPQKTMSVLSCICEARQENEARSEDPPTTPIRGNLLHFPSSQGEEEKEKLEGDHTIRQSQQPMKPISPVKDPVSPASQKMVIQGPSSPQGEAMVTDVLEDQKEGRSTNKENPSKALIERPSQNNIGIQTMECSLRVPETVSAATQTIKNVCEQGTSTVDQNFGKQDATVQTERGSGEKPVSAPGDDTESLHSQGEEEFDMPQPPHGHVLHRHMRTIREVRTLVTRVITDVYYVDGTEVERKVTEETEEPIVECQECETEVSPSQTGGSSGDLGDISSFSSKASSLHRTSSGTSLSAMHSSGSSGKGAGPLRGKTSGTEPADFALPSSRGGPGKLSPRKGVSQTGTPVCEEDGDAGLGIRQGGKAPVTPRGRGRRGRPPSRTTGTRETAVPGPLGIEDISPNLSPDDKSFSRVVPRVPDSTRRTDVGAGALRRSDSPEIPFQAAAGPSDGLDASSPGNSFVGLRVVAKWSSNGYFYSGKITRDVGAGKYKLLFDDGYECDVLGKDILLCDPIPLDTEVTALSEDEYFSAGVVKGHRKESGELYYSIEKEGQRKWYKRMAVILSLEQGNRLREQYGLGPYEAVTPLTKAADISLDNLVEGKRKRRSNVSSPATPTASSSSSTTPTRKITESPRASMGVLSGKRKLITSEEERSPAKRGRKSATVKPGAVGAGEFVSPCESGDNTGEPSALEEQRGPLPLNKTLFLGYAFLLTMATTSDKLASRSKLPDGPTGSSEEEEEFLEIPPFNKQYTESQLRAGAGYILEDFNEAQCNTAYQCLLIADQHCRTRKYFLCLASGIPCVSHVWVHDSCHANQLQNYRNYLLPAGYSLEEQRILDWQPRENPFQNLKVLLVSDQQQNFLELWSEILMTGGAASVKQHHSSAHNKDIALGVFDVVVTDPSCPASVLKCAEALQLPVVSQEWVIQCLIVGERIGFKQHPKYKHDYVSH
CC1=C(C#N)C(c2ccc3[nH]nc(C)c3c2)C(C#N)=C(C)N1 — IC50 (MET; cell-based): 2.9 nM
CCN(CC)c1cc(C)c2cc(NC(=O)/C=C/c3ccco3)ccc2n1 — IC50 (TP53-binding protein 1 tandem tudor domain; binding; tandem tudor domain): 1690 nM
O[C@]1(C(F)(F)F)CCCC[C@H]1Nc1ccc(F)cc1 — Ki (SLC6A3; binding, radioligand binding Eurofins-Panlabs): 900 nM
CNC(=O)c1ccc(N2C(=S)N(c3ccc(C#N)c(C(F)(F)F)c3)C(=O)C2(C)C)cc1F — digoxin plasma exposure increase (inhibitor; human; concentration not given, added: digoxin): 33%
c1ccc(N2CCN(Cc3nc4ccccc4[nH]3)CC2)nc1 — Ki (DRD4.2; biochemical): 57.5 nM
CC(C)(C)NCCCNC(=O)c1cccc(Br)c1 — IC50 (TP53-binding protein 1 tandem tudor domain; binding; tandem tudor domain): 29000 nM
O=C(Nc1cnc(Oc2ccc(F)cc2)nc1)N1CCc2ncccc2[C@@H]1c1ccc(F)cc1 — IC50 (LHCGR; cellular activity): 185 nM

Excerpt of the above (mixed results):
CC1=C(C#N)C(c2ccc3[nH]nc(C)c3c2)C(C#N)=C(C)N1 — IC50 (MET; cell-based): 2.9 nM
CCN(CC)c1cc(C)c2cc(NC(=O)/C=C/c3ccco3)ccc2n1 — IC50 (TP53-binding protein 1 tandem tudor domain; binding; tandem tudor domain): 1690 nM
